# Published values pooled from the literature.
# Compare with care: the assays were run in different laboratories. Numbers after ± are the reported error.
# Target: Histone deacetylase 7 (HDAC7, Homo sapiens, UniProt Q8WUI4)
# Action: inhibitor
# One construct used (Q8WUI4 1-952): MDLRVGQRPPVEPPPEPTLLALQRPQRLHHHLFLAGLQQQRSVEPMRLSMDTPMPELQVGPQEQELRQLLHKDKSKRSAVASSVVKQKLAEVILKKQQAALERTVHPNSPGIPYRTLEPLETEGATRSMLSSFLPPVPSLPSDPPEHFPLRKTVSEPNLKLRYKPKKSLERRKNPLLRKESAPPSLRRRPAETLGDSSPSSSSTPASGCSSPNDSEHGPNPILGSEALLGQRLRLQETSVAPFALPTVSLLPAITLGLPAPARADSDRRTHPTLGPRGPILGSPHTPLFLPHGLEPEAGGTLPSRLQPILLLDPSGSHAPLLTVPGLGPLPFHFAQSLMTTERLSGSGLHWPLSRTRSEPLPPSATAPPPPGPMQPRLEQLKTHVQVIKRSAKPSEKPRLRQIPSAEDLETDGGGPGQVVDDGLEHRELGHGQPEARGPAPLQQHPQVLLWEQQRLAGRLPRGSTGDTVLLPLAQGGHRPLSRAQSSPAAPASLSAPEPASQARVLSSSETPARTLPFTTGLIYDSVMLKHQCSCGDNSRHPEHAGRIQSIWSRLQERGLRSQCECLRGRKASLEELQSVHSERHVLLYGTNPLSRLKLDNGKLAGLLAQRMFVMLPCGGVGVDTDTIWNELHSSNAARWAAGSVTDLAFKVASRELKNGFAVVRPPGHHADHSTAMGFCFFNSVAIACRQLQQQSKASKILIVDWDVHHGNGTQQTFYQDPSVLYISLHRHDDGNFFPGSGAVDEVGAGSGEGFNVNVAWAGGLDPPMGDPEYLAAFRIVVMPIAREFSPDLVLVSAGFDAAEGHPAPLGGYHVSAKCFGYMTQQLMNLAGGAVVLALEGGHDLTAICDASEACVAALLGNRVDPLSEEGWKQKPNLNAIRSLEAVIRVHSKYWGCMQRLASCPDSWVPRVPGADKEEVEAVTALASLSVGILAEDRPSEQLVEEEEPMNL
SMILES,assay,IC50
Cn1cc2c(n1)CN(C(=O)Nc1nc(-c3ccc(F)cc3)ccc1N)C2,"deacetylase activity, recombinant enzyme",> 30 µM
O=C(O)c1ccc(Cn2sc3ccccc3c2=O)cc1,enzyme activity,4.1 µM
Cc1ncc2c(n1)CN(C(=O)Nc1nc(-c3cccs3)ccc1N)C2,"deacetylase activity, recombinant enzyme",> 30 µM
COC(=O)c1ccc(Cn2sc3ccccc3c2=O)cc1,enzyme activity,8.79 µM
O=C1CCC(N2C(=O)c3ccc(N4CCC(C(=O)N5CCC(CCN6CCC(CNC(=O)c7cccc(-c8noc(C(F)(F)F)n8)c7)(c7nc(-c8ccccc8)cs7)CC6)CC5)CC4)cc3C2=O)C(=O)N1 (stereo not drawn),enzyme activity,2.4 µM
O=C(NO)c1ccc(CN2c3ccccc3Oc3ccc(C(=O)Nc4ccc(C(=O)c5ccccc5)cc4)cc32)cc1,enzyme activity,1.51 ± 0.15 µM
COCCn1cc2c(n1)CN(C(=O)Nc1nc(-c3ccc(F)cc3F)ccc1N)C2,"deacetylase activity, recombinant enzyme",> 30 µM
O=c1c2ccccc2sn1Cc1ccccc1,enzyme activity,6.08 µM
N/C(=N\O)c1ccc2c(c1)Oc1ccccc1N2Cc1cccc(C(=O)NO)c1,enzyme activity,21.7 µM

# Excerpt of the above:
SMILES,assay,IC50
O=C1CCC(N2C(=O)c3ccc(N4CCC(C(=O)N5CCC(CCN6CCC(CNC(=O)c7cccc(-c8noc(C(F)(F)F)n8)c7)(c7nc(-c8ccccc8)cs7)CC6)CC5)CC4)cc3C2=O)C(=O)N1 (stereo not drawn),enzyme activity,2.4 µM
